{"data": "Assay results of several laboratories", "note": "Compare with care: the assays were run in different laboratories."}
{"Compound": "CC(C)C[C@@H](NC(=O)[C@H](Cc1ccccc1)NC(=O)CNC(=O)[C@@H](C)NC(=O)[C@H](Cc1ccc(O)cc1)NC(=O)[C@@H]1CCCN1C(=O)[C@@H]1CCCN1C(=O)c1ccc[n+](C)c1)C(=O)O", "system": "rat brain cortex homogenate", "setting": "100 µM, pH 7.4, 37 °C", "half-life": "0.0667 h"}
{"Compound": "[Cl][Ru-]([Cl])([Cl])[Cl].[Na+].c1ccc2[nH]ncc2c1.c1ccc2[nH]ncc2c1", "assay": "ICP-MS, measured: total ruthenium", "system": "advanced solid tumour patients, plasma", "setting": "iv infusion, 160 mg/m2, cycle 1 cohort mean", "half-life": "182 h"}
{"Compound": "CC/C(=C(\\c1ccccc1)c1ccc(OCCN(C)C)cc1)c1ccccc1", "system": "CD-1 mouse, male, lung", "setting": "intraperitoneal, 10 mg/kg", "half-life": "5.62 h"}
{"Compound": "CCC[C@@](N)(CO)CCc1ccc(OCCCCCC(C)C)cc1", "system": "dog, male hounds, plasma", "setting": "oral capsule, 10 mg/kg, median", "half-life": "20.7 h"}
{"Compound": "Cn1ncc(-c2nc(N[C@H]3CC[C@H](N)CC3)ncc2Cl)c1CC1CC1", "assay": "HPLC-MS/MS", "system": "patients, plasma", "setting": "oral, 8 mg, day 5", "half-life": "45 h"}
{"Compound": "CCC(CNc1nc(-c2cn3ccnc3cc2C)nc2ccccc12)c1ccccc1 (stereo not shown)", "assay": "LC-MS parent depletion", "system": "mouse liver microsomes", "half-life": "0.117 h"}
{"Compound": "COc1cc2c(cc1OC)CN(CCc1ccc(NC(=O)c3cccc4c(=O)c5cccc(OC)c5[nH]c34)cc1)CC2", "system": "CD-1 mouse, male, lung", "setting": "intraperitoneal, 3 mg/kg", "half-life": "5.5 h"}
{"Compound": "C[C@]1(CO)Cc2ncn(-c3ccc(C#N)c(Cl)c3)c2C(=O)O1", "system": "human, plasma", "setting": "80 mg, first dose fasted", "half-life": "4.8 h"}
{"Compound": "COc1cccc2c1CCCC2CCCN1CCN(C2CCCCC2)CC1 (stereo not shown)", "system": "CD-1 mouse, male, plasma", "setting": "intraperitoneal, 1 mg/kg", "half-life": "3.33 h"}
{"Compound": "CC(C)CC(=O)OC[C@H]1O[C@@](C#N)(c2ccc3c(N)ncnn23)[C@H](O)[C@@H]1O", "system": "human whole blood", "setting": "5 µM", "half-life": "0.119 h"}
